# Measurements of several laboratories.
# Each numbered part is a random draw from the data of one study; scales do not carry over between parts.
# Sequence of UniProt P15056 (whole entry, unmodified, looked up): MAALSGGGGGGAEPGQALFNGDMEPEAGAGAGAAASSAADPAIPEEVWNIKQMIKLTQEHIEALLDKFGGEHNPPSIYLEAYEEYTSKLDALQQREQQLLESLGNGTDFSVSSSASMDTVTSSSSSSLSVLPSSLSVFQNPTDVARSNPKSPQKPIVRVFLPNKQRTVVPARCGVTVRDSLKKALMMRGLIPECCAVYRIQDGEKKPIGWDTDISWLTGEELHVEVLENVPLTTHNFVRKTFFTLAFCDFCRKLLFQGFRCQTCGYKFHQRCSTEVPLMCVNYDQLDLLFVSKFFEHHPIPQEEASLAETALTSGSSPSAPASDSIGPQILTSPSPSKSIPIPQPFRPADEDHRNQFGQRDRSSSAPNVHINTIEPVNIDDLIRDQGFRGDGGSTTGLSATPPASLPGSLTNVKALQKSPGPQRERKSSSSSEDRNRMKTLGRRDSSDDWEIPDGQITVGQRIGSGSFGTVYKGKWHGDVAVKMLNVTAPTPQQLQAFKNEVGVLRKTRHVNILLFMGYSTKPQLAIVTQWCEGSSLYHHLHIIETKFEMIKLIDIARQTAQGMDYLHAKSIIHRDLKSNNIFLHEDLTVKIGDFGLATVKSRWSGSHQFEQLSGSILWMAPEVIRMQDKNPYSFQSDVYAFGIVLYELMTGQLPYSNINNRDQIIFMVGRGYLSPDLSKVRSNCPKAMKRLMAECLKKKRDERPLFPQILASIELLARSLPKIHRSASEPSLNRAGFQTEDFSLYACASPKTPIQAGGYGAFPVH
# Sequence of UniProt Q92918 (whole entry, looked up): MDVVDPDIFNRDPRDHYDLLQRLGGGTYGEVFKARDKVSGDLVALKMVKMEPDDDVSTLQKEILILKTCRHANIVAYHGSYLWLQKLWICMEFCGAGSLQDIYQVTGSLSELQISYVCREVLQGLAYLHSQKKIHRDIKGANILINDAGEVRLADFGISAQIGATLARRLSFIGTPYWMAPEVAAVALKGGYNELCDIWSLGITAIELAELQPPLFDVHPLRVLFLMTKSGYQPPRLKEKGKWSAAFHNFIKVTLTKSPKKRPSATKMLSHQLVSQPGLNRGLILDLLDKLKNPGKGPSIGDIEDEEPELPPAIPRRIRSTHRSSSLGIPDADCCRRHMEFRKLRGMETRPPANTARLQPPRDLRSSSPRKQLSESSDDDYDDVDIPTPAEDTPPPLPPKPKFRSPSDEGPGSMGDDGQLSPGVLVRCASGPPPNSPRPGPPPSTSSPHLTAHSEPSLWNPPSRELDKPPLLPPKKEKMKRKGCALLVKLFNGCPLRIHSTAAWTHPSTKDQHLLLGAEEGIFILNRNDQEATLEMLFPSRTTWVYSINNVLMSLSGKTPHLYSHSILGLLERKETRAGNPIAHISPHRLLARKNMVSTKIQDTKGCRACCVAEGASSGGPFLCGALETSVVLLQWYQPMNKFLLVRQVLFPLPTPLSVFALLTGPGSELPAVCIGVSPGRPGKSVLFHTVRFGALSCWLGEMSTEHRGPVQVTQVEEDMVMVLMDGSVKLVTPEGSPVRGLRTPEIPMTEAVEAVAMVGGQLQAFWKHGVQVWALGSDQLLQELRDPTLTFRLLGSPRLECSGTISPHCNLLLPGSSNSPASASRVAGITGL
# Sequence of UniProt O00141 (whole entry, looked up): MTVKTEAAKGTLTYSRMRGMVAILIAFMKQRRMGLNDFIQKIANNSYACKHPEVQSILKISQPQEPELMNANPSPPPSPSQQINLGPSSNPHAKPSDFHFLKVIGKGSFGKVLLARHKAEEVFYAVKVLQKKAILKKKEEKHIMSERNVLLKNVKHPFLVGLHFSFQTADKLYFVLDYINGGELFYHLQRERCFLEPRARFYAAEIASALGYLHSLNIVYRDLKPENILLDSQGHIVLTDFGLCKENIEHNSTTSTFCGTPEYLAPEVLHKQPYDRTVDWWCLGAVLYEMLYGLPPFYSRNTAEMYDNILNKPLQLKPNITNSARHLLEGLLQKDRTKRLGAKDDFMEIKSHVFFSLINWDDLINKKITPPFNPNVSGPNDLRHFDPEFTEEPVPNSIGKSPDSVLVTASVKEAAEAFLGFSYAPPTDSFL

# Series 1
# Structure (SMILES): Cc1sc(C(=O)NC2COC2)cc1-n1cc(NC(=O)Nc2c(F)cccc2Cl)cn1
# Observed: enzyme activity
# Concentration: 10 µM
# Relative to: untreated control
target,remaining activity [%]
"Serine/threonine-protein kinase 16 (STK16, Homo sapiens, UniProt O75716)",94.3
"Calcium/calmodulin-dependent protein kinase type 1 (CAMK1, Homo sapiens, UniProt Q14012)",113
"cGMP-dependent protein kinase 1, isoform beta (PRKG1, Homo sapiens, UniProt Q13976)",87.3
"Mitogen-activated protein kinase kinase kinase 3 (MAP3K3, Homo sapiens, UniProt Q99759)",109
"Ribosomal protein S6 kinase alpha-1 (RPS6KA1, Homo sapiens, UniProt Q15418)",91
"Casein kinase II subunit alpha' (CSNK2A2, Homo sapiens, UniProt P19784)",93.3
"Serine/threonine-protein kinase Sgk1 (SGK1, Homo sapiens, UniProt O00141)",114

# Series 2
# Target: Calcium/calmodulin-dependent protein kinase type II subunit alpha (CAMK2A, Homo sapiens, UniProt Q9UQM7)
# Sequence of UniProt Q9UQM7 (whole entry, looked up): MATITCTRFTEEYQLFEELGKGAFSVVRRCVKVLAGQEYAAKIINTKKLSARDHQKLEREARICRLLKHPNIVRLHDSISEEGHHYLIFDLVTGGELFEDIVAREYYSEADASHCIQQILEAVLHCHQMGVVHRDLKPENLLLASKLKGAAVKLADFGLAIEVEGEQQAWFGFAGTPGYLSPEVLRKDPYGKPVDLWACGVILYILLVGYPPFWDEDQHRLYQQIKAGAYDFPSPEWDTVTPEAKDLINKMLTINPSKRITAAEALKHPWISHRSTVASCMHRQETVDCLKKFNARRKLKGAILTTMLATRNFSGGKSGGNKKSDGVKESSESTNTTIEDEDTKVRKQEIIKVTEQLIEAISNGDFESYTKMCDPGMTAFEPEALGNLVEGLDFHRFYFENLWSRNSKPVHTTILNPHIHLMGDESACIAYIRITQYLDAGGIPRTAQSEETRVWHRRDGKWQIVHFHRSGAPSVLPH
# Observed: enzyme activity
# Mode: inhibitor
# Concentration: 10 µM
Structure (SMILES),inhibition
CCC(C)n1ncn(-c2ccc(N3CCN(c4ccc(OC[C@H]5CO[C@](Cn6cncn6)(c6ccc(Cl)cc6Cl)O5)cc4)CC3)cc2)c1=O (mixture of isomers),-12%
Nc1cc(F)ccc1NC(=O)c1ccc(CNC(=O)/C=C/c2cccnc2)cc1,-4%
C#C[C@]1(OC(C)=O)CC[C@H]2[C@@H]3CCC4=C[C@@H](OC(C)=O)CC[C@@H]4[C@H]3CC[C@@]21C,3%
CN(C)C(=O)Oc1cccc([N+](C)(C)C)c1,-2%
CC(C)[C@H](N)C(=O)N[C@@H](Cc1ccc(O)cc1)C(=O)O,-13%
CC(S)C(=O)NCC(=O)O (centres unmarked),3%
CC(=O)OCC(=O)[C@@]1(O)CC[C@H]2[C@@H]3CCC4=CC(=O)CC[C@]4(C)[C@@]3(F)[C@@H](O)C[C@@]21C,-11%
COC(=O)[C@H](Cc1ccc(-n2c(=O)c3cc(N(C)C)ccc3n(C)c2=O)cc1)NC(=O)c1c(Cl)cccc1Cl,-4%
c1ccc(C2CN3CCSC3=N2)cc1 (centres unmarked),9%

# Series 3
# Target: DNA polymerase theta, ATPase domain (POLQ, Homo sapiens, UniProt O75417)
# Sequence of UniProt O75417 (whole entry, unmodified, looked up): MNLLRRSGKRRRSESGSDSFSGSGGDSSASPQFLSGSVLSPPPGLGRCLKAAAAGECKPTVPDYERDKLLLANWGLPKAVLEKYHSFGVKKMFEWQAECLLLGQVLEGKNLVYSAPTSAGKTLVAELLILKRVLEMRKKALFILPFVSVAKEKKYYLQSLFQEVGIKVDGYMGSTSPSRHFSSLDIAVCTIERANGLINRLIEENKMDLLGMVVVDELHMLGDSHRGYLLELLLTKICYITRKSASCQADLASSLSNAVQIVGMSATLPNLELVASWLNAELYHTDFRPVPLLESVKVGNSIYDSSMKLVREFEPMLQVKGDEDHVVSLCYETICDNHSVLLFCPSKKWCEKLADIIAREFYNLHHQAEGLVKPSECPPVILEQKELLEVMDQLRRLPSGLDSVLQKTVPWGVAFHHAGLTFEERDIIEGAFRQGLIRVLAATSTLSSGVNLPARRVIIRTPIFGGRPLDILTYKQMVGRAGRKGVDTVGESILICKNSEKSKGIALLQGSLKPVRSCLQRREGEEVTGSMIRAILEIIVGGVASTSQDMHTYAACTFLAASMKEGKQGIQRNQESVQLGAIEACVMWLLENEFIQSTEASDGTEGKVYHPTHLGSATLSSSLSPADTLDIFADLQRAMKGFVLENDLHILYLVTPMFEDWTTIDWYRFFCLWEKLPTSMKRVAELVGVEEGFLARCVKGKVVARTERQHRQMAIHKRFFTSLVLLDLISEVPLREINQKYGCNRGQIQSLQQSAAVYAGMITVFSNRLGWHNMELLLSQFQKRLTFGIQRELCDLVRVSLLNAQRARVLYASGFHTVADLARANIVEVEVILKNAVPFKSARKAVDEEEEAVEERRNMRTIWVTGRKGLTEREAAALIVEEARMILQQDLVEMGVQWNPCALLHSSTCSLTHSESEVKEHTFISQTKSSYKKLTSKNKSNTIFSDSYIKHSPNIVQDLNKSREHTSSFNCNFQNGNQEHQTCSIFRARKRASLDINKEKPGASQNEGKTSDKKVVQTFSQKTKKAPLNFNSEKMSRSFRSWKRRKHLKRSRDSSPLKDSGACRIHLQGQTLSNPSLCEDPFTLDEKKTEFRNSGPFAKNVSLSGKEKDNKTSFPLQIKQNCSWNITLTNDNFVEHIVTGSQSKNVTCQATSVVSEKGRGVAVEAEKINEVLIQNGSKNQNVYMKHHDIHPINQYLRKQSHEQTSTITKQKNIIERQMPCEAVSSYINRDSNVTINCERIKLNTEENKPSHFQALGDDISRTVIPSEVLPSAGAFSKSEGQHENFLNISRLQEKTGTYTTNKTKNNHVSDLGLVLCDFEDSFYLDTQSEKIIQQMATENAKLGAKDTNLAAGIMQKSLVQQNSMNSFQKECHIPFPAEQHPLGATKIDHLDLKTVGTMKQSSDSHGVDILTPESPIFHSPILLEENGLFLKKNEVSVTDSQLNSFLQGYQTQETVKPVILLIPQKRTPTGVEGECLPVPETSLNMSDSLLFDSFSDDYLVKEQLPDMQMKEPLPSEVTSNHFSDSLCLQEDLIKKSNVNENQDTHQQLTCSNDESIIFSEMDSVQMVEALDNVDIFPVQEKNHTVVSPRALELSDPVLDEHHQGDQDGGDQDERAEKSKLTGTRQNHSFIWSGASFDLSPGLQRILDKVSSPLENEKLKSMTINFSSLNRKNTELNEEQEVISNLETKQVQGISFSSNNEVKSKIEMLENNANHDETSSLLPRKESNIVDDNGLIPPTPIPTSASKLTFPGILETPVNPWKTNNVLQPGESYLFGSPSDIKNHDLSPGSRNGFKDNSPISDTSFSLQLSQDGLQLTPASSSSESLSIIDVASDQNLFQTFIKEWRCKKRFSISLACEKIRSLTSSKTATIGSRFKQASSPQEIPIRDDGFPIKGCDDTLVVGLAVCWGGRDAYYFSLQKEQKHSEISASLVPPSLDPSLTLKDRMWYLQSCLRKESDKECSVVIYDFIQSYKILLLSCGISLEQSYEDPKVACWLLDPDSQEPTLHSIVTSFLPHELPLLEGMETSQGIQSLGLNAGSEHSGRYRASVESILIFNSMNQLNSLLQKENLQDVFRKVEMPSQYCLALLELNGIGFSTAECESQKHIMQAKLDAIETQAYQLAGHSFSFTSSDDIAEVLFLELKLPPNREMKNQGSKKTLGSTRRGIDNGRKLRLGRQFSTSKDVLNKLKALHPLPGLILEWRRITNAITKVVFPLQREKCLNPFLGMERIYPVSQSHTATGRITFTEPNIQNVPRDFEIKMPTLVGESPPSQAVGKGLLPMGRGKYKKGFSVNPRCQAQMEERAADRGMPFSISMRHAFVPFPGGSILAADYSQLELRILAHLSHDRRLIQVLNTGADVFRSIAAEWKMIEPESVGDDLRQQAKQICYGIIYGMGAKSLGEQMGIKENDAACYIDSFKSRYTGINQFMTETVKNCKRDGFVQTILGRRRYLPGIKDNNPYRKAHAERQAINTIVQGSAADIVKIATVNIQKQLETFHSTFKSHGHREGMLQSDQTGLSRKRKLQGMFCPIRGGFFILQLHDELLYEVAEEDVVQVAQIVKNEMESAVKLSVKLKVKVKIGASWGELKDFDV
# Observed: enzyme activity
# Mode: inhibitor
# Concentration: 77 µM
# Relative to: untreated
Structure (SMILES),remaining activity
CCOc1ccc(Cc2nccc3cc(OCC)c(OCC)cc23)cc1OCC,99.6%
O=c1cc(-c2ccc(O)c(O)c2)oc2cc(O)cc(O)c12,99.2%
NC(=O)c1ccc(-c2nc(-c3ccccn3)c(-c3ccc4c(c3)OCO4)[nH]2)cc1,93.3%
C[N+]1(CCCCC[N+]2(C)CCCC2)CCCC1,98.7%
CCN(CC)CCOc1ccc(Nc2ncc3cc(-c4c(Cl)cccc4Cl)c(=O)n(C)c3n2)cc1,110%
CO[C@@]1(NC(=O)C(C(=O)O)c2ccc(O)cc2)C(=O)N2C(C(=O)O)=C(CSc3nnnn3C)CO[C@@H]21 (some centres unmarked),105%
Cn1cc(/C=C2\C(=O)Nc3ccc(S(N)(=O)=O)cc32)c2ccccc21,109%
C[C@]12CC[C@@H]3c4ccc(O)cc4CC[C@H]3[C@@H]1CC[C@@H]2OC(=O)CCC1CCCC1,95.5%
CC(C(=O)O)c1ccc2c(c1)Cc1cccnc1O2 (centres unmarked),98.4%
O=C(O)[C@H]1NCCC[C@H]1C(=O)O,97.3%
Cc1cc2c(cc1CC(=O)c1sccc1S(=O)(=O)Nc1onc(C)c1Cl)OCO2,86.8%
NC(N)=NCCNS(=O)(=O)c1cccc2cnccc12,114%

# Series 4
# SMILES: CC(=O)Nc1c(C(C)=O)c(=O)n(C)c2nc(-c3ccc(Cl)cc3Cl)c(-c3ccc(Cl)cc3)cc12
# Observed: cell-free assay
# Method: competition with immobilised ligand
# Concentration: 1 µM
target,remaining binding [%]
"Death-associated protein kinase 2 (DAPK2, Homo sapiens, UniProt Q9UIK4)",100
"Ankyrin repeat and protein kinase domain-containing protein 1 (ANKK1, Homo sapiens, UniProt Q8NFD2)",100
"cAMP-dependent protein kinase catalytic subunit beta (PRKACB, Homo sapiens, UniProt P22694)",100
"Phosphatidylinositol 4,5-bisphosphate 3-kinase catalytic subunit alpha isoform (PIK3CA, Homo sapiens, UniProt P42336, E545A)",85
"Serine/threonine-protein kinase PAK 5 (PAK5, Homo sapiens, UniProt Q9P286)",100
"Ribosomal protein S6 kinase alpha-5, C-terminal kinase domain (RPS6KA5, Homo sapiens, UniProt O75582)",86
"Casein kinase II subunit alpha (CSNK2A1, Homo sapiens, UniProt P68400)",100
"Phosphatidylinositol 4,5-bisphosphate 3-kinase catalytic subunit beta isoform (PIK3CB, Homo sapiens, UniProt P42338)",100
"Serine/threonine-protein kinase B-raf (BRAF, Homo sapiens, UniProt P15056, V600E)",100
"Beta-adrenergic receptor kinase 1 (GRK2, Homo sapiens, UniProt P25098)",84
"Megakaryocyte-associated tyrosine-protein kinase (MATK, Homo sapiens, UniProt P42679)",100
"Activin receptor type-2B (ACVR2B, Homo sapiens, UniProt Q13705)",100
"Receptor-type tyrosine-protein kinase FLT3 (FLT3, Homo sapiens, UniProt P36888, R834Q)",100
"Phosphatidylinositol 4-phosphate 5-kinase type-1 alpha (PIP5K1A, Homo sapiens, UniProt Q99755)",100
"Vascular endothelial growth factor receptor 3 (FLT4, Homo sapiens, UniProt P35916)",100
"Protein-tyrosine kinase 6 (PTK6, Homo sapiens, UniProt Q13882)",100
"Protein-tyrosine kinase 2-beta (PTK2B, Homo sapiens, UniProt Q14289)",100
"Mitogen-activated protein kinase kinase kinase kinase 1 (MAP4K1, Homo sapiens, UniProt Q92918)",91
"Serine/threonine-protein kinase 24 (STK24, Homo sapiens, UniProt Q9Y6E0)",100
"Serine/threonine-protein kinase PRP4 homolog (PRPF4B, Homo sapiens, UniProt Q13523)",100
"ALK tyrosine kinase receptor (ALK, Homo sapiens, UniProt Q9UM73)",100
"Serine/threonine-protein kinase 35 (STK35, Homo sapiens, UniProt Q8TDR2)",100
"Serine/threonine-protein kinase 17B (STK17B, Homo sapiens, UniProt O94768)",100
"Cyclin-dependent kinase 11B (CDK11B, Homo sapiens, UniProt P21127)",83
"Insulin-like growth factor 1 receptor (IGF1R, Homo sapiens, UniProt P08069)",100
